Measured values collected from several papers.
Parts stem from different laboratories: compare values within a part only. Positions count from the first letter of the parent shown.

Sample 1
Target: Transcription factor SOX-2, HMG box (SOX2, Homo sapiens, UniProt P48431, residues 19-118)
UniProt P48431, sequence (19-118, looked up): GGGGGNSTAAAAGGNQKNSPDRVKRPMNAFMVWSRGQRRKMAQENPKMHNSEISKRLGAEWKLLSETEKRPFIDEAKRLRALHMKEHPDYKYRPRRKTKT
Technique: protein-binding microarray
Molecule type: double-stranded DNA, one strand shown
Sample: in vitro
Tested at: not given
Notes: k-mer, scored over probes, only values ≥0.25
Direction: higher = stronger binding
The E-score of `CAATGGA` is reported as 0.347.
With `AAACAAT` the E-score was 0.475.
`CACAATA` has an E-score of 0.426.
With `AATTAAT` the E-score was 0.392.
With `AAAGAAT` the E-score was 0.37.
`ATTATCG` gave an E-score of 0.295.
`TGAACAA` gave an E-score of 0.348.
The E-score of `GTAACAA` is reported as 0.313.
For `CTATTTA`, the E-score was 0.315.
The E-score of `CTATTAA` is reported as 0.289.
The E-score of `CATTATA` is reported as 0.356.
`AATAGAC` gave an E-score of 0.294.
The E-score of `ACATTGA` is reported as 0.319.
`CATTATC` gave an E-score of 0.359.
`GATTGTA` has an E-score of 0.262.
`AATGGAT` has an E-score of 0.252.
`GATACAA` gave an E-score of 0.275.
The E-score of `AATTGTC` is reported as 0.456.
With `AATCATA` the E-score was 0.274.
`TAATTAA` gave an E-score of 0.369.
`ATTCAAG` gave an E-score of 0.261.
`AAGAATA` gave an E-score of 0.35.
For `AATTCGT`, the E-score was 0.266.
For `ATTCACC`, the E-score was 0.377.
`AATACAG` has an E-score of 0.284.

Sample 2
Target: Phosphate system positive regulatory protein PHO4, full length, GST-tagged (PHO4, Saccharomyces cerevisiae, UniProt P07270, residues 1-312)
Technique: competition protein-binding microarray
Molecule type: double-stranded DNA, one strand shown
Sample: in vitro
Tested at: 2 µM
Notes: whole 60-bp probe, lowest competitor level
With: Cbf1 competitor, 0.05 µM
Direction: higher = stronger binding
All sequences stand within: … GTCTTGATTCGCTTGACGCTGCTG
Construct (chain): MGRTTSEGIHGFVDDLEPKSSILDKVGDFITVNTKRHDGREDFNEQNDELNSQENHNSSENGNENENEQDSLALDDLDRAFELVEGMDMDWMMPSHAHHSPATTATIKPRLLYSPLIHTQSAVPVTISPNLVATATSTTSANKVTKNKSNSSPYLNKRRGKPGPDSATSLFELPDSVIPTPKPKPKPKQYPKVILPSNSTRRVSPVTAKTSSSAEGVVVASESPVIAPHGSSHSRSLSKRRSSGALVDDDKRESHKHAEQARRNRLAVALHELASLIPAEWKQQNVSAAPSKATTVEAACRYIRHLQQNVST
For `TCTTTCTGAATTTAGCACGCTTGGCACCGGTAGCGG`, the fluorescence intensity was 7080 a.u.
`TATGCGATGAATACGCACATGGGCTCTCCTGGCGGA` has a fluorescence intensity of 11200 a.u.
`CTAACGAAGGTTTGCTCAGTGGGTGACAAGCCAAGT` gave a fluorescence intensity of 3440 a.u.
`CTTTCCCGATCTTGACAAGTGGGTGTAGCACATTTG` has a fluorescence intensity of 4910 a.u.
The fluorescence intensity of `CGTCCTAGCGATTGATCCGTGGGTGCCATGAGGAAG` is reported as 7050 a.u.
With `ATCTATATACATATTTATATATATTATTAGAACTTT` the fluorescence intensity was 3310 a.u.
`TATCTTGTCATCCACCATGTGTCTTAGTCGTTGATA` gave a fluorescence intensity of 9080 a.u.
With `GCCGCTTCTTTATGCACCGTGGAGTAATTACCGAAT` the fluorescence intensity was 6150 a.u.
For `TGCGCAACAACTTGTCACACTACTTTATGTCTAGAA`, the fluorescence intensity was 4020 a.u.
`ATTGAGATAAAAATAAACGTGGTTACTCCCGAGGCA` gave a fluorescence intensity of 12600 a.u.
`ATACCGGCTCGATAACATGTGTCAAATTCTCACCGG` has a fluorescence intensity of 8980 a.u.
With `TGTTATTAACGTACCCACGCACAGTGGTGCTATCCA` the fluorescence intensity was 8570 a.u.
For `TGCGCAACAACTTGAAATGTGGGTGTATGTCTAGAA`, the fluorescence intensity was 6400 a.u.
The fluorescence intensity of `CAATGTCCATTTTAGCACGTGGGACTTGTTCTGTGG` is reported as 17600 a.u.
`GAAAAGTGGTATGCACTCGTGGGTATTTTTACAACT` gave a fluorescence intensity of 11800 a.u.
With `CCCTTGTCATTTTCCCAGGTGACGCTGAATTGTATG` the fluorescence intensity was 5260 a.u.
With `CCTTGTTCCGGAGCGCACATGGCATTTCAAGGTCAA` the fluorescence intensity was 10100 a.u.
`TCCTCCACAAACAATCTCGTGGTCGTTTATCCATAC` gave a fluorescence intensity of 10300 a.u.
For `CATACCCAACCTTTTCACGTGGGCTAAGATATTTGT`, the fluorescence intensity was 17100 a.u.

Sample 3
Target: ABI1, truncated, D143A, DHFR fusion (Arabidopsis thaliana)
Technique: DHFR PCA, deep sequencing
Sample: yeast
Notes: methotrexate growth selection, single substitutions
With: (+)-ABA 0.11 µM
Baseline: wild-type fitted maximum
Direction: higher = stronger binding
Parent: PYL1, truncated, DHFR fusion (Arabidopsis thaliana); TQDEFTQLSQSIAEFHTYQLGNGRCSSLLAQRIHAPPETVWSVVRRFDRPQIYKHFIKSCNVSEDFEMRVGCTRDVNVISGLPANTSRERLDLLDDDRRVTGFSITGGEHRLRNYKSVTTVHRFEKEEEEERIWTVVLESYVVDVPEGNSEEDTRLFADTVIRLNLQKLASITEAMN; partner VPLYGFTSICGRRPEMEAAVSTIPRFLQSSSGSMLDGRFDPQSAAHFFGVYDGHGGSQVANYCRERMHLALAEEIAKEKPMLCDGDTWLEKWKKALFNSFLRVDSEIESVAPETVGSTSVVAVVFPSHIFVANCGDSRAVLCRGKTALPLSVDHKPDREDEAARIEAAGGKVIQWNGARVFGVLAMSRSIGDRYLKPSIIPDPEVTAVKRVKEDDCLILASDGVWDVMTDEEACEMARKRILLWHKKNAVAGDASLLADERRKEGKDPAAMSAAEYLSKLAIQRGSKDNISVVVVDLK
For `D92V`, “relative binding score” read -1.7%.
Under “relative binding score”, `R46A` is recorded as 24.2%.
For `C60F`, “relative binding score” read -2.96%.
`G21T`: “relative binding score” 38.3%.
`D65Y` — result for “relative binding score”: -4.55%.
`Y141D` — result for “relative binding score”: 5.9%.
Under “relative binding score”, `S80C` is recorded as 30.4%.
Under “relative binding score”, `G21F` is recorded as -2.36%.
`I133P`: “relative binding score” 47.2%.
For `E147Y`, “relative binding score” read 15.5%.
For `D92Q`, “relative binding score” read 4.01%.
`D75H` — result for “relative binding score”: 36.8%.
`Q10D` — result for “relative binding score”: 59.3%.
`A170I` — result for “relative binding score”: -9.81%.
Under “relative binding score”, `G108D` is recorded as 4.5%.
`V70H`: “relative binding score” -1.07%.
`R123Y` — result for “relative binding score”: 1.47%.
For `Q31W`, “relative binding score” read 0.546%.
Under “relative binding score”, `V136K` is recorded as -8.47%.
`N22S`: “relative binding score” 42.8%.

Sample 4
Target: CCNE1, cyclin fold, Cln2 fusion (human)
Technique: yeast growth competition, sequencing
Sample: yeast
Notes: weak parent motif
Baseline: not given
Direction: higher = stronger binding
Parent: SAMHD1 docking peptide (human); ASKSRVQLFKDDP
`ASKFRVQLFKDDP [S4F]` — result for “normalised enrichment score”: 0.649.
`ASKSRVQLFTDDP [K10T]` — result for “normalised enrichment score”: 0.301.
Under “normalised enrichment score”, `ASKSRVQLFKKDP [D11K]` is recorded as 0.675.
For `ALKSRVQLFKDDP [S2L]`, “normalised enrichment score” read 0.105.
For `ASKSWVQLFKDDP [R5W]`, “normalised enrichment score” read 0.406.
`ASKSVVQLFKDDP [R5V]` — result for “normalised enrichment score”: 0.343.
For `ASKSRLQLFKDDP [V6L]`, “normalised enrichment score” read 0.203.
`ASKSRVQPFKDDP [L8P]`: “normalised enrichment score” -0.191.
`ASKSRVRLFKDDP [Q7R]` — result for “normalised enrichment score”: 0.54.
Under “normalised enrichment score”, `ASKSRVQQFKDDP [L8Q]` is recorded as -0.0617.
Under “normalised enrichment score”, `ASKSRVQLFLDDP [K10L]` is recorded as 0.127.
`ASKSRVQLCKDDP [F9C]`: “normalised enrichment score” 0.0677.
`ASKSRQQLFKDDP [V6Q]`: “normalised enrichment score” -0.59.
`ASKSRVQIFKDDP [L8I]` — result for “normalised enrichment score”: -0.0701.
Under “normalised enrichment score”, `ASKSRVQLFYDDP [K10Y]` is recorded as -0.197.
`ASKSRVQLEKDDP [F9E]`: “normalised enrichment score” 0.0678.
Under “normalised enrichment score”, `ASKSRVQYFKDDP [L8Y]` is recorded as -0.0824.
`ASKSRVQLFHDDP [K10H]` — result for “normalised enrichment score”: -0.0736.
Under “normalised enrichment score”, `APKSRVQLFKDDP [S2P]` is recorded as 0.218.
`ASKSRVQLFKDCP [D12C]`: “normalised enrichment score” -0.245.
`ASKSRVQLFKDSP [D12S]` — result for “normalised enrichment score”: 0.201.
`ASKSRVQWFKDDP [L8W]` — result for “normalised enrichment score”: 0.462.

Sample 5
Target: CREB3L2, bZIP domain (human)
Technique: DHFR protein complementation
Sample: yeast
Notes: single substitutions, most at no-binding floor
Baseline: wild-type JUN-FOS pair
Direction: higher = stronger binding
Parent: JUN, bZIP domain (human); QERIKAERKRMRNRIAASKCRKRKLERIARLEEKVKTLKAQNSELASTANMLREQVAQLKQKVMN; partner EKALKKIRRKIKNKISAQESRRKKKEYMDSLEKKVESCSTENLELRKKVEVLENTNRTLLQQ
`R30L` gave a binding fitness of -1.46 natural log.
With `K39I` the binding fitness was -1.42 natural log.
`M51G` has a binding fitness of -1.49 natural log.
`A46F` has a binding fitness of -1.4 natural log.
The binding fitness of `E32H` is reported as -1.57 natural log.
The binding fitness of `L52W` is reported as -1.43 natural log.
With `L31F` the binding fitness was -1.56 natural log.
For `A46M`, the binding fitness was -1.46 natural log.
With `V56N` the binding fitness was -1.42 natural log.
For `L38T`, the binding fitness was -1.52 natural log.
`E44S` gave a binding fitness of -1.5 natural log.
With `V56G` the binding fitness was -1.49 natural log.
`A40K` has a binding fitness of -1.43 natural log.
`T48Y` has a binding fitness of -1.39 natural log.
`R53T` has a binding fitness of -1.47 natural log.
The binding fitness of `E33N` is reported as -1.49 natural log.
The binding fitness of `A40T` is reported as -1.48 natural log.
